Assay results gathered from unrelated publications.
Each line is one published result; not all experiments were run side by side. “And” joins repeats or separate records; there may be more than shown. Numbers after ± are the reported error.

For `CC(=O)Nc1cccc(-n2c(=O)n(C3CC3)c(=O)c3c(Nc4ccc(I)cc4F)n(C)c(=O)c(C)c32)c1`, the viability was 45.3% (LoVo (KRAS G13D); resazurin; 50.00 nM, 72 h; relative to: DMSO).
For `O=C(O[C@@H]1COC(=O)c2cc(O)c(O)c(O)c2-c2c(cc(O)c(O)c2O)C(=O)O[C@H]1[C@@H]1OC(=O)c2cc(O)c(O)c(O)c2-c2c(O)c(O)c(O)c3c2C(=O)O[C@H]1[C@@H]3O)c1cc(O)c(O)c(O)c1`, the viability was 73.7 ± 2.04% (SH-SY5Y; neuroprotection, MTT; 10.7 µM, 24 h, together with: H2O2 100 µM).
`Cc1c(-c2c(-c3ccc(F)o3)sc3ncnc(O[C@H](Cc4ccccc4OCc4ccnn4CC(F)(F)F)C(=O)O)c23)ccc(OCCN2CCN(C)CC2)c1Cl` — result for viability: “inactive” (U-937; CellTiter-Glo; concentration not given, single agent, 5% FBS).
`Nc1cccc2c1C(=O)N(C1CCC(=O)NC1=O)C2=O` (stereo not drawn) has a viability of 101% and 62% and 55% (MM1.S resistant to compound; XTT; 0.6 µM).
For `CC(=O)c1nn(-c2ccc(Cl)cc2)/c(=N/N=C(\C)c2ccc(NC(=O)c3ccc(C)cc3)cc2)s1`, the viability was 5.22% (MCF7; 10 µM).
`Cc1cccc(-c2[nH]c(CNc3ccccc3F)nc2-c2ccc3ncnn3c2)n1` gave a viability of 72% (MM1.S; XTT; 0.8 µM; relative to: untreated).
`COc1ccc(-n2nc(C(C)=O)s/c2=N\N=C(/C)c2ccc(NC(=O)c3ccc(Cl)cc3)cc2)cc1` has a viability of 84.8% (MCF7; 0.078 µM).
Under viability, `CCCCCCCCCCCCCC(=O)N[C@@H](CCSC)C(=O)N[C@@H](C)C(=O)N[C@@H](CO)C(=O)N[C@@H](CCCNC(=N)N)C(=O)NCC(=O)N[C@@H](C)C(=O)N[C@@H](CC(C)C)C(=O)N[C@@H](CCCNC(=N)N)C(=O)N[C@@H](CCCNC(=N)N)C(=O)N[C@@H](CS)C(=O)N[C@@H](CC(C)C)C(=O)N[C@@H](CO)C(=O)N1CCC[C@H]1C(=O)NCC(=O)N[C@@H](CC(C)C)C(=O)N1CCC[C@H]1C(=O)N[C@@H](CCCNC(=N)N)C(=O)N[C@@H](CC(C)C)C(=O)N[C@@H](CC(C)C)C(=O)N[C@@H](Cc1c[nH]cn1)C(=O)N[C@@H](CC(C)C)C(=O)N[C@@H](CO)C(=O)N[C@@H](CCCNC(=N)N)C(=O)NCC(=O)N[C@@H](CC(C)C)C(=O)N[C@@H](C)C(N)=O` is recorded as “inhibited” (U-937; cell viability, XTT; concentration not given, lymphoma).
For `O=C(C[C@@H](C(F)F)n1ccc(F)n1)N1CCC(O)(Cn2cnc3c(cnn3-c3ccc(F)cc3)c2=O)CC1`, the viability was 101% (CHP-212 USP7 V517F knock-in clone; SRB; 0.003048 µM).
